Experimental data gathered from unrelated publications.
Each line is one published result; not all experiments were run side by side. ± gives the spread as reported.
B1: protein F105A (Arabidopsis thaliana, UniProt Q9LYC2); sequence looked up; chain MTMLRVRSRDGLERVSVDGPHITVSQLKTLIQDQLQIPIHNQTLSTNRNLLLAKSPSDFLAFTDMADPNLRISSLNLAHGSMVYLAYEGERTIRGGPAVTPAGSAGRKMTVEDLIARQMRVGRQEKAHCDSVSFDRDCANAFQHFVNESLAFAVKRGGFMYGNVSEDGQVEVNFIYEPPQQGMEDNLILMRDSEEEKRVDAIALGLGMRRVGFIFNQTVTQDKKEYTLSNVEVLLAAQLHAESELKEWVTAVVKLEINEDGGADVHFEPFQMSDMCVRLFKEGWFETEIGPEDDPKLSKLKKEVVVGVKDVKEVDNDFFLVLVKILDHQGPLSCTFPIENRNTQTTMRALKTHMERARSLPFVKRISDFHLLLFVAQFLDVSSDVPALAECVRLQSHVPEGYELLIDSMANTS
B2: Cacna1c 1647-1777 (Mus musculus, UniProt Q01815); sequence looked up; chain NALSLQAGLRTLHDIGPEIRRAISGDLTAEEELDKAMKEAVSAASEDDIFRRAGGLFGNHVTYYQSDSRGNFPQTFATQRPLHINKTGNNQADTESPSHEKLVDSTFTPSSYSSTGSNANINNANNTALGR
B3: CFH 1108-1231 W1183L (Homo sapiens, UniProt P08603); sequence looked up; chain KCGPPPPIDNGDITSFPLSVYAPASSVEYQCQNLYQLEGNKRITCRNGQWSEPPKCLHPCVISREIMENYNIALRLTAKQKLYSRTGESVEFVCKRGYRLSSRSHTLRTTCWDGKLEYPTCAKR
B4: PUX7 322-468 (Arabidopsis thaliana, UniProt Q94JZ8); chain EDVAKDEEEEELQRALAASLEDNNMKESSDDQSTIIPEEVAVEAVTSAVLPTFPPLPEEPKGGDRSLQCRVGIRLPNGQRLQRNFLKTDTIQLLWSFCYSQLEESERKKPLKLTQAIPGESKTLEYESNLTLEQSGVANSMISATWE
B5: NRP1 (Arabidopsis thaliana); chain MVADKSKKSKIEEKGEEENLEQIDAELVLSIEKLQEIQDDLEKINEKASDEVLEVEQKYNVIRKPVYDKRNEVIQSIPGFWMTAFLSHPALGDLLTEEDQKIFKYLNSLEVEDAKDVKSGYSITFHFTSNPFFEDAKLTKTFTFLEEGTTKITATPIKWKEGKGLPNGVNHDDKKGNKRALPEESFFTWFTDAQHKEDAGDEIHDEVADIIKEDLWSNPLTYFNNDADEEDFDGDDDGDEEGEEDDDDEEEEDGEE
B6: NUB1 (Homo sapiens); chain GPGSMAQKKYLQAKLTQFLREDRIQLWKPPYTDENKKVGLALKDLAKQYSDRLECCENEVEKVIEEIRCKAIERGTGNDNYRTTGIATIEVFLPPRLKKDRKNLLETRLHITGRELRSKIAETFGLQENYIKIVINKKQLQLGKTLEEQGVAHNVKAMVLELKQSEEDARKNFQLEEEEQNEAKLKEKQIQRTKRGLEILAKRAAETVVDPEMTPYLDIANQTGRSIRIPPSERKALMLAMGYHEKGRAFLKRKEYGIALPCLLDADKYFCECCRELLDTVDNYAVLQLDIVWCYFRLEQLECLDDAEKKLNLAQKCFKNCYGENHQRLVHIKGNCGKEKVLFLRLYLLQGIRNYHSGNDVEAYEYLNKARQLFKELYIDPSKVDNLLQLGFTAQEARLGLRACDGNVDHAATHITNRREELAQIRKEEKEKKRRRLENIRFLKGMGYSTHAAQQILLSNPQMWWLNDSNPETDNRQESPSQENIDRLVYMGFDALVAEAALRVFRGNVQLAAQTLAHNGGSLPPELPLSPEDSLSPPATSPSDSAGTSSASTDEDMETEAVNEILEDIPEHEEDYLDSTLEDEEIIIAEYLSYVENRKSATKKN
UniProt P54609, sequence (whole entry, looked up): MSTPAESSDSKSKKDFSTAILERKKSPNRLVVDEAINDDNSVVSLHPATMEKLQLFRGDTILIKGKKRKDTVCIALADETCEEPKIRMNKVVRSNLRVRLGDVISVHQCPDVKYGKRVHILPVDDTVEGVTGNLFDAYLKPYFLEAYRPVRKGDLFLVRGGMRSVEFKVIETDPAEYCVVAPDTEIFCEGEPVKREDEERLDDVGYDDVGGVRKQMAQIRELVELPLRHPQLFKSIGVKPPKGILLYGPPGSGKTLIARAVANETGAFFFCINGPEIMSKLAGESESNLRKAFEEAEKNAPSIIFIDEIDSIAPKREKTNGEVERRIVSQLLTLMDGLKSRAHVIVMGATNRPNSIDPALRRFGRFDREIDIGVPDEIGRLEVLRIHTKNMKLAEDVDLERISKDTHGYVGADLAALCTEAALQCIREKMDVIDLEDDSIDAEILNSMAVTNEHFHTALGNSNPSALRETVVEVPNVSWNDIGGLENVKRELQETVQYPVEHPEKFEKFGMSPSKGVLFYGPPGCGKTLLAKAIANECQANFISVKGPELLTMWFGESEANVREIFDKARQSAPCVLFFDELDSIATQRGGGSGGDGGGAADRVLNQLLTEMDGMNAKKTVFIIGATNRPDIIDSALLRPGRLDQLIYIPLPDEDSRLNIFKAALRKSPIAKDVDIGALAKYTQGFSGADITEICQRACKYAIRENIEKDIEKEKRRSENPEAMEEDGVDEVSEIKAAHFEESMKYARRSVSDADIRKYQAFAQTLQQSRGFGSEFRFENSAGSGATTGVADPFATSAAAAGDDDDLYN
UniProt P01024, sequence (whole entry, looked up): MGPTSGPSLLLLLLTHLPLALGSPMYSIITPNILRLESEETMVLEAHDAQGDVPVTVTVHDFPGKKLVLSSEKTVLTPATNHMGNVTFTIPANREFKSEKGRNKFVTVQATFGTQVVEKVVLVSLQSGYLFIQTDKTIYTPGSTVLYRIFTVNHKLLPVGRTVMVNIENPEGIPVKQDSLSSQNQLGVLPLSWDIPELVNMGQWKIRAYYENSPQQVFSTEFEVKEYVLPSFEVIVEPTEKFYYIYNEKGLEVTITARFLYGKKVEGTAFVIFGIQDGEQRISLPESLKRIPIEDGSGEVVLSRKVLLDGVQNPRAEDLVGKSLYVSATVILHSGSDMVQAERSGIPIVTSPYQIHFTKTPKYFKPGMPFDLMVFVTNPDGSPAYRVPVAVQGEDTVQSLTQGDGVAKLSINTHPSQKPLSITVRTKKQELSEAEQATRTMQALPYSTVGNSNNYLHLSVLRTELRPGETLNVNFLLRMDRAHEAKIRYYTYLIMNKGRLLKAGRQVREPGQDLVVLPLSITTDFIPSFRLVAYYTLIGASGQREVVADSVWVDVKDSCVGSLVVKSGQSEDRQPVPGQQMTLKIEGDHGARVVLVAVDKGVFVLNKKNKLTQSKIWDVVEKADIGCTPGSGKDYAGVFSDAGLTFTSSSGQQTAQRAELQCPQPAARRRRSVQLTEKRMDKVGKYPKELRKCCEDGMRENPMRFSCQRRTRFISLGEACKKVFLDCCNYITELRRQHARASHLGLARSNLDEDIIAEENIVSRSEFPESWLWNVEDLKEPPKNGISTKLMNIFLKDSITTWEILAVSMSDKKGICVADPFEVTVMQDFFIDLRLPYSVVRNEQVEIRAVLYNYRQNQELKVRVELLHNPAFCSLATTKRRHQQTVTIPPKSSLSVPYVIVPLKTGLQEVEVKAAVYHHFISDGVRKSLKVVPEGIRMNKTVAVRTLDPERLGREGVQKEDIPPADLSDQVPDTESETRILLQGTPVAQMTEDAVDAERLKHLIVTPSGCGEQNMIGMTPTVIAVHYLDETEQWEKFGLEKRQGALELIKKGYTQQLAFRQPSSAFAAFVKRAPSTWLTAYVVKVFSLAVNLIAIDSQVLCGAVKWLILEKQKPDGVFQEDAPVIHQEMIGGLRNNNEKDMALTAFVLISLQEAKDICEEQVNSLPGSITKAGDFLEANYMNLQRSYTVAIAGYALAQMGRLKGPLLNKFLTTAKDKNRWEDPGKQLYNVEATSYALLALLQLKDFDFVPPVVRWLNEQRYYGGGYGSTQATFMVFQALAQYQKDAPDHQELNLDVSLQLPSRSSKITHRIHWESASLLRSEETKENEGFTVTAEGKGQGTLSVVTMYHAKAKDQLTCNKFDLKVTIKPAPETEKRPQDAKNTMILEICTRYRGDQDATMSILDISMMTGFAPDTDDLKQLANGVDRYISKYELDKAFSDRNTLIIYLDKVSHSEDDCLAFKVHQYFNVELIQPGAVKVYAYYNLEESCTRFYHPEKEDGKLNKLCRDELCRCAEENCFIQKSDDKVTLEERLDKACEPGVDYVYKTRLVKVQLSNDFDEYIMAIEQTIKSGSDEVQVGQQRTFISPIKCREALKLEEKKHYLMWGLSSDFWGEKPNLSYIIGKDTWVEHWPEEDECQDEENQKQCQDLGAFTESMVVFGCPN
UniProt P01375, sequence (whole entry, looked up): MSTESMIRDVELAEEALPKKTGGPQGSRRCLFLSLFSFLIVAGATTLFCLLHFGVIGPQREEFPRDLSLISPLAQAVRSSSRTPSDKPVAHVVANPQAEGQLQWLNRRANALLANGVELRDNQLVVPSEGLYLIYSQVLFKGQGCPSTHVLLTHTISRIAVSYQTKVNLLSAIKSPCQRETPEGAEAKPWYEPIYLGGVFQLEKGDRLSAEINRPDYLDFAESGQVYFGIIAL

Molecule | partner | test | test system | setting | Kd
SCN2A fragment R1914A (Homo sapiens) (sequence not shown) | CALM1 (Homo sapiens, UniProt P0DP23) | fluorescence titration |  | with: CaCl2 | 292 nM
B1 (protein F105A) | CDC48A (Arabidopsis thaliana, UniProt P54609) | ITC |  | with: AMPPNP | 3900 nM
TGFBR2 extracellular domain/anti-EGFR IgG1 fusion bifunctional fusion (Homo sapiens) | FCGR3A V176F | SPR |  |  | 1250 ± 170 nM
B2 (Cacna1c 1647-1777) | Jph2 1-440 S165H (Mus musculus, UniProt Q9ET78) | ITC |  |  | 7320 nM
B3 (CFH 1108-1231 W1183L) | C3 C3dg 955-1303 (Homo sapiens, UniProt P01024) | SPR |  |  | 5300 ± 200 nM
GCVRLHESCLGQQVPCCDPAATCYCVGRGDDNLKCYCR (designed peptide AgRP scaffold) | ITGAV/ITGB3 K562 cells | flow cytometry | designed binder, U87MG |  | 1.6 nM
golimumab, partial deamidation, succinimide | TNF (Homo sapiens, UniProt P01375) | SPR |  |  | 0.0034 nM
B4 (PUX7 322-468) | CDC48A 1-463 (Arabidopsis thaliana, UniProt P54609) | ITC |  | 10 °C | 2600 ± 300 nM
B5 (NRP1) | H2B fragment (Xenopus laevis) | SPR |  |  | 18500 nM
B6 (NUB1) | FAT10 GG-FAT10 full length, N-terminal 5-FAM (Homo sapiens) | FP |  |  | 176 ± 6.8 nM
ptsH fragment (Escherichia coli) (sequence not shown) | ptsI fragment (Escherichia coli) | NMR titration |  | with Ficoll-70 | 30500 ± 4100 nM

A few entries again:
Molecule | partner | test | test system | setting | Kd
GCVRLHESCLGQQVPCCDPAATCYCVGRGDDNLKCYCR (designed peptide AgRP scaffold) | ITGAV/ITGB3 K562 cells | flow cytometry | designed binder, U87MG |  | 1.6 nM
